# Assay results collected from several papers.
# Lines come from different studies, so protocols differ. Several values in a cell are separate wells, animals, samples, runs or records. ± marks the error that the study gave.
Structure (SMILES),target,assay,system,setting,how to read,measurement,result
CCc1cnc(NC(=O)c2cc(S(=O)(=O)N3CCOCC3)ccc2N2CCC(F)(F)C2)s1,oligosaccharyltransferase,"N-glycosylation, inhibitor, luciferase reporter",,,,IC50,0.59 µM
NCCCOc1cc(NC(=O)c2cc(Cl)cc(C(=O)Nc3cc(OCCCN)c4ccccc4n3)n2)nc2ccccc12,c-myc G-quadruplex DNA,FRET melting,,"1 µM, pH 7.4, with: 60 mM potassium",,ΔTm,17.1 ± 0.5 K
O=C(O)CCCOc1cccc(CNC(=O)C#Cc2cn(Cc3ccc(C(=O)O)cc3)c(=O)[nH]c2=O)c1,MMP-14,"inhibitor, FRET",,10 µM,,remaining MMP-14 activity,101 ± 1%
C=C(F)C(=O)N1CCN(c2nc(OC[C@@H]3CCCN3C)nc3c2CCN(c2cccc4cccc(Cl)c24)C3)C[C@@H]1CC#N,HRAS wild type (human),"SOS-mediated nucleotide exchange, inhibitor",,concentration not given,,inhibition,inactive
Clc1ccc2nccc(NCCc3ccccc3)c2c1,CDK8/CDK19,NF-κB reporter gene,293-NFκB-Luc,"3 h, with: TNF-α 10 ng/mL",,IC50,> 5 µM
CN(C)CCCOc1cc(NC(=O)c2cc(Cl)cc(C(=O)Nc3cc(OCCCN(C)C)c4ccccc4n3)n2)nc2ccccc12,c-myc G-quadruplex DNA,FRET melting,,"1 µM, pH 7.4, with: 60 mM potassium",,ΔTm,16.9 ± 0.8 K
COc1ccccc1-c1n[nH]c2nc(N[C@H]3CC[C@H](NS(=O)(=O)CCCOCCOCCNC(=O)OC(C)(C)C)CC3)ncc12,Leishmania donovani CRK3 (LINJ.36.0600),resin binding competition,promastigote lysate,10 µM,reference: DMSO,log2 SILAC ratio heavy/light,3.31
NC1(C(=O)N[C@@H](CCO)c2ccc(Cl)cc2)CCN(c2nc[nH]c3nccc2-3)CC1,Akt,inhibitor,mouse BT-474 xenograft,"intraperitoneal, 30 mg/kg",,time to baseline return,≤ 24 h
[Cl-].[Cl-].[Pt+2].[Ru+2].c1ccc(-c2nc3ccccc3nc2-c2ccccn2)nc1.c1cnc2c(c1)ccc1cccnc12.c1cnc2c(c1)ccc1cccnc12,pcDNA supercoiled plasmid,agarose gel electrophoresis,,"100 µM, photoinduced cleavage, with: 0.1 µM pcDNA",,nicked circular DNA,19.5%
Brc1ccc2nccc(NCCc3ccccc3)c2c1,CDK8/CDK19,NF-κB reporter gene,293-NFκB-Luc,"3 h, with: TNF-α 10 ng/mL",,IC50,> 5 µM
[Cl-].[Cl-].[Pt+2].[Ru+2].c1ccc(-c2nc3cc4ccccc4cc3nc2-c2ccccn2)nc1.c1cnc2c(c1)ccc1cccnc12.c1cnc2c(c1)ccc1cccnc12,pcDNA supercoiled plasmid,agarose gel electrophoresis,,"20 µM, photoinduced cleavage, with: 0.1 µM pcDNA",,nicked circular DNA,12.6%
CCS(=O)(=O)c1nc(C2CC2)cc(C(F)(F)F)n1,importin beta-1,"SREBP1 nuclear import, high content imaging",HeLa Kyoto,"5.01 µM, 3 h, with: glucose and MG132",,cells with nuclear SREBP1,90.3% and 89.3% and 87% and 91.2%
Oc1cccc(Nc2nc(-c3ccc(F)cc3F)cs2)c1,SKCa channel,,,10 µM,,inhibition,4.2%
Oc1ccccc1-c1n[nH]cc1-c1ccnc2ccccc12,KIN2 (Candida albicans),"kinase binding, MIB/MS competition",Candida albicans lysate,1 µM,reference: DMSO,log2 fold change,0.05
C#CCOc1cc(C(=O)Nc2cc(OCCCN)c3ccccc3n2)nc(C(=O)Nc2cc(OCCCN)c3ccccc3n2)c1,c-myc G-quadruplex DNA,FRET melting,,"1 µM, pH 7.4, with: 60 mM potassium",,ΔTm,6.3 ± 0.3 K
c1coc(-c2n[nH]cc2-c2ccnc3ccccc23)c1,KIN2 (Candida albicans),"kinase binding, MIB/MS competition",Candida albicans lysate,1 µM,reference: DMSO,log2 fold change,-0.09
O=C1Nc2cc(Br)ccc2/C1=C1/Nc2ccccc2/C1=N\O,GSK3,"inhibitor, immunoblot",HEK293 stably expressing Hwa-HA,"1 µM, 24 h",,Hwa phosphorylation,decreased
c1ccc(CCNc2ccnc3ccccc23)cc1,CDK8/CDK19,NF-κB reporter gene,293-NFκB-Luc,"3 h, with: TNF-α 10 ng/mL",,IC50,> 5 µM
CCN(CC)c1ccc(/C=N/c2ccccc2Br)c(O)c1,yeast alpha-glucosidase,enzyme activity,,with: pNPG,,IC50,> 400 µM
[Cl-].[Cl-].[Pt+2].[Ru+2].c1ccc(-c2nccnc2-c2ccccn2)nc1.c1cnc2c(c1)ccc1cccnc12.c1cnc2c(c1)ccc1cccnc12,pcDNA supercoiled plasmid,agarose gel electrophoresis,,"50 µM, photoinduced cleavage, with: 0.1 µM pcDNA",,supercoiled DNA,79.4%
CC(Nc1nc(N2CCCC2)nc2ccccc12)c1ccccc1 (stereo not shown),importin α/β1,"cMyc nuclear import, high content imaging",HeLa Kyoto reporter,"0.1 µM, 2 h",,cells with nuclear reporter,88.3% and 98.5%
Cc1ncsc1-c1ccc([C@H](C)NC(=O)[C@@H]2C[C@@H](O)CN2C(=O)[C@@H](NC(=O)CCCCCCCCCCNC[C@@H](C(=O)N2CCN(c3ncnc4c3[C@H](C)C[C@H]4O)CC2)c2ccc(Cl)cc2)C(C)(C)C)cc1,Akt,inhibitor,mouse BT-474 xenograft,"intraperitoneal, 40 mg/kg",,time to peak response,24 h
C#CCOc1cc(C(=O)Nc2cc(OCCN)c3ccccc3n2)nc(C(=O)Nc2cc(OCCN)c3ccccc3n2)c1,c-myc G-quadruplex DNA,FRET melting,,"1 µM, pH 7.4, with: 60 mM potassium",,ΔTm,7.4 ± 0.6 K
CCN(CC)c1ccc(/C=N/c2ccccc2F)c(O)c1,yeast alpha-glucosidase,enzyme activity,,with: pNPG,,IC50,169 µM
O=C(Nc1cc(OCCN2CCCC2)c2ccccc2n1)c1cc(OCc2ccc(F)cc2)cc(C(=O)Nc2cc(OCCN3CCCC3)c3ccccc3n2)n1,c-myc G-quadruplex DNA,FRET melting,,"1 µM, pH 7.4, with: 60 mM potassium",,ΔTm,5.3 ± 0.5 K
CC[S+]([O-])c1nc(-c2ccccc2)cc(C(F)(F)F)n1 (stereo not shown),importin beta-1,"SREBP1 nuclear import, high content imaging",HeLa Kyoto,"0.16 µM, 3 h, with: glucose and MG132",,cells with nuclear SREBP1,84.4% and 83.2% and 87.9% and 90.9%
NCCOc1cc(NC(=O)c2cc(OCc3ccc(F)cc3)cc(C(=O)Nc3cc(OCCN)c4ccccc4n3)n2)nc2ccccc12,c-myc G-quadruplex DNA,FRET melting,,"1 µM, pH 7.4, with: 60 mM potassium",,ΔTm,2.3 ± 0.3 K
CCN(CC)c1ccc(/C=N/c2ccc(Br)cc2)c(O)c1,yeast alpha-glucosidase,enzyme activity,,with: pNPG,,IC50,150 µM

# A few entries again:
Structure (SMILES),target,assay,system,setting,how to read,measurement,result
Cc1ncsc1-c1ccc([C@H](C)NC(=O)[C@@H]2C[C@@H](O)CN2C(=O)[C@@H](NC(=O)CCCCCCCCCCNC[C@@H](C(=O)N2CCN(c3ncnc4c3[C@H](C)C[C@H]4O)CC2)c2ccc(Cl)cc2)C(C)(C)C)cc1,Akt,inhibitor,mouse BT-474 xenograft,"intraperitoneal, 40 mg/kg",,time to peak response,24 h
C#CCOc1cc(C(=O)Nc2cc(OCCN)c3ccccc3n2)nc(C(=O)Nc2cc(OCCN)c3ccccc3n2)c1,c-myc G-quadruplex DNA,FRET melting,,"1 µM, pH 7.4, with: 60 mM potassium",,ΔTm,7.4 ± 0.6 K
CCN(CC)c1ccc(/C=N/c2ccccc2F)c(O)c1,yeast alpha-glucosidase,enzyme activity,,with: pNPG,,IC50,169 µM
O=C(Nc1cc(OCCN2CCCC2)c2ccccc2n1)c1cc(OCc2ccc(F)cc2)cc(C(=O)Nc2cc(OCCN3CCCC3)c3ccccc3n2)n1,c-myc G-quadruplex DNA,FRET melting,,"1 µM, pH 7.4, with: 60 mM potassium",,ΔTm,5.3 ± 0.5 K
CC[S+]([O-])c1nc(-c2ccccc2)cc(C(F)(F)F)n1 (stereo not shown),importin beta-1,"SREBP1 nuclear import, high content imaging",HeLa Kyoto,"0.16 µM, 3 h, with: glucose and MG132",,cells with nuclear SREBP1,84.4% and 83.2% and 87.9% and 90.9%
